{"data": "Results collected from several papers", "note": "Numbers after ± are the reported error."}
{"SMILES": "CC(=O)N[C@H]1[C@H]([C@H](O)[C@H](O)CO)OC(C(=O)O)=C[C@@H]1N=C(N)N", "technique": "HPLC", "medium": "HBSS", "concentration": "0.1 µg/mL", "time": "time not given", "notes": "three freeze-thaw cycles", "recovery": "102%"}
{"SMILES": "CC(C)(C)c1ccc(O)c(CN(Cc2cc(C(C)(C)C)ccc2O)C2CCC(NC(N)=O)CC2)c1 (stereo not drawn)", "medium": "mouse brain", "concentration": "2000 ng/g", "time": "24 h", "temperature": "25 °C", "notes": "short-term storage", "recovery": "99.78 ± 0.45%"}
{"SMILES": "C=CC(=O)Nc1cc(Nc2nccc(-c3cn(C)c4ccccc34)n2)c(OC)cc1N(C)CCN(C)C", "technique": "storage stability", "medium": "human plasma", "time": "2 h", "temperature": "-80 °C", "notes": "LLOQ level", "recovery": "104%"}
{"SMILES": "O=C1CC[C@H](N2Cc3cc(N4CCN(CC5CCN(c6ccc([C@@H]7c8ccc(O)cc8CC[C@@H]7c7ccccc7)cc6)CC5)CC4)ccc3C2=O)C(=O)N1", "technique": "rapid equilibrium dialysis", "medium": "SD rat plasma", "concentration": "2.5 µM", "time": "6 h", "recovery": "102%"}
{"SMILES": "C=CC(=O)Nc1cc(Nc2nccc(-c3cn(C)c4ccccc34)n2)c(OCC(F)(F)F)nc1N(C)CCN(C)C", "technique": "rapid equilibrium dialysis", "medium": "human plasma", "concentration": "0.1 µg/mL", "time": "time not given", "recovery": "77.7%"}
{"SMILES": "CNC(=C[N+](=O)[O-])NCCSCc1ccc(CN(C)C)o1", "medium": "Caco-2 monolayer", "concentration": "10 µM", "time": "2 h", "recovery": "91.3%"}
{"SMILES": "CCCCS(=O)(=O)N[C@@H](Cc1ccc(OCCCCC2CCNCC2)cc1)C(=O)O", "technique": "rapid equilibrium dialysis", "medium": "human platelet-free plasma", "concentration": "2 µM", "time": "24 h", "recovery": "116%"}
{"SMILES": "CC(=O)CC(c1ccccc1)c1c(O)c2ccccc2oc1=O (stereo not drawn)", "medium": "Caco-2 monolayer", "concentration": "10 µM", "time": "2 h", "recovery": "91.2%"}
{"SMILES": "CC(=O)N1CCN(c2ccc(OCC3COC(Cn4ccnc4)(c4ccc(Cl)cc4Cl)O3)cc2)CC1 (stereo not drawn)", "technique": "equilibrium dialysis", "medium": "human plasma", "concentration": "1 µM", "time": "6 h", "recovery": "107%"}
